Published values gathered from unrelated publications.
A part holds a random share of what one study measured.

Series 1 — technique: protein-binding microarray; molecule type: double-stranded DNA, one strand shown; medium: in vitro; tested at: 2200 nM top; notes: 60-bp whole probe; added: salmon DNA 0.4 mg/ml; baseline: random background probes; direction: higher = stronger binding; endpoint: fitted relative affinity; constant ends, left off below: GCCTAGCAC … GTCTTGATTCGCTTGACGCTGCTG
Target: Interferon regulatory factor 7, full length, phosphomimetic (IRF7, Homo sapiens, UniProt Q92985, residues 1-503, S471D/S472D/S475D/S476D/S477D/S483D/S484D/S487D)
Residues (chain): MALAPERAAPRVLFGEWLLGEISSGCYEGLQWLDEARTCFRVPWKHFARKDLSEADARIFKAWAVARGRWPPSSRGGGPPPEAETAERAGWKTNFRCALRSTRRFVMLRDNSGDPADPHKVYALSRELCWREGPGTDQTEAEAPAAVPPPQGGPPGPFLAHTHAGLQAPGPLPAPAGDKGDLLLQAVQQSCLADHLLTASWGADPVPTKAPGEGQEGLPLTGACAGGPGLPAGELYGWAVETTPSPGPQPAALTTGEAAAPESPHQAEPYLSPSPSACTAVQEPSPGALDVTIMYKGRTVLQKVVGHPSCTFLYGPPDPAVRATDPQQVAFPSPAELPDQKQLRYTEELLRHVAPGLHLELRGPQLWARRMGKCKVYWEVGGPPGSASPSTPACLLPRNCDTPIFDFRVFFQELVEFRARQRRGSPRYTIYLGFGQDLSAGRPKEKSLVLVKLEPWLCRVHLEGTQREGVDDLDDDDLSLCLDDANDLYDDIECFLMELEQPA
TTAGATTACAGTTCCGATTAGTGCTAG: 0.986 z-score
GACGGTATCGCGTTTCGGGACGTGCTA: 1.13 z-score
GACGATTTCAGGTCCGAGACGTGCTAG: 0.83 z-score
GACGGTACCGACTTTCGGGACGTGCTA: 2.42 z-score
TTCGATTTCAGTCTCGATTAGTGCTAG: 2.15 z-score
TTAGGACTGGGGTTTCGGTAAGTGCTA: 0.557 z-score
TCACCTCTACCTCCTGGGACTGTGCTA: 0.752 z-score
CAGGGTCTCGCTTCATCTCCGTGCTAG: 0.782 z-score
TGAGCACCCAGAGCCGCCTGGTGCTAG: -0.901 z-score
GAATGAATGGACATTTCTTCGTGCTAG: 0.682 z-score
TGAGGACTGGGTATCGGTTAGTGCTAG: -0.406 z-score
TTAGGACGGCTTCTCCTTTAGTGCTAG: 0.178 z-score
CTCACCGCCAACCCAGTTCCGTGCTAG: 0.665 z-score
CAAGTTTCTCCTTTCCAAATGTGCTAG: 4.27 z-score
GACGATACCGGGTATCGAGACGTGCTA: 0.408 z-score
GTTAGAATGTCCTTTCTCCATGTGCTA: 1.05 z-score
GACGATATCGGGACTGGAGAGGTGCTA: -0.48 z-score
GACGGACTGGGTCTCGGGATGTGCTAG: -0.773 z-score
GACGGTTTCCTTTCCCTGATGTGCTAG: 4.4 z-score
GACGGTATCGACACTGTGGACGTGCTA: 0.0668 z-score
TTAGATATCAGTCTCGATTCGTGCTAG: 1.42 z-score
TACGATTTCGGGTATCGAGACGTGCTA: 2.85 z-score
TATATTCTATTCCTTTAACAGTGCTAG: 2.18 z-score
TTAGATATCGGGCCTGGATTAGTGCTA: -0.4 z-score
TTAGGTTTCGACTATCGGTGAGTGCTA: 3.1 z-score

Series 2 — technique: universal PBM; molecule type: double-stranded DNA, one strand shown; medium: in vitro; tested at: not given; direction: higher = stronger binding; endpoint: E-score
Target: Sal-like protein 4, full length isoform B (SALL4, Homo sapiens, UniProt Q9UJQ4-2, residues 1-616)
Notes: 8-mer, flanks averaged, mean of replicates
Residues (chain): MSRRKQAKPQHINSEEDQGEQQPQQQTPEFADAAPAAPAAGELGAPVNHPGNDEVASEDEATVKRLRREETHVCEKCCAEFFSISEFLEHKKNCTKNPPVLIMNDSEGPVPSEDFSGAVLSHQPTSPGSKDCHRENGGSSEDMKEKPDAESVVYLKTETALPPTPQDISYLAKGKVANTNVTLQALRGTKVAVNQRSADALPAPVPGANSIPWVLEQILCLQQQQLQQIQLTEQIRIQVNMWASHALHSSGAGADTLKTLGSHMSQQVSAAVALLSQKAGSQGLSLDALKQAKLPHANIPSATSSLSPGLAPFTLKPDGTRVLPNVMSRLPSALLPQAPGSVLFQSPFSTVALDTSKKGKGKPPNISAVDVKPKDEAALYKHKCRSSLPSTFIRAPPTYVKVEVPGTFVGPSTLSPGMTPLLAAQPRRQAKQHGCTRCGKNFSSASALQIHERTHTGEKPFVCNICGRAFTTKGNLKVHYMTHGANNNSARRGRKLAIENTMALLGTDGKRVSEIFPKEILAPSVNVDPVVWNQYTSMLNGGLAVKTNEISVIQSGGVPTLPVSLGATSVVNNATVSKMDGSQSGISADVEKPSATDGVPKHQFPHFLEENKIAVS
AAACGGGT: 0.0286
CTCTAAAA: 0.0815
CCCCCCAG: -0.383
GGCGGCCC: -0.407
GAACTAAC: -0.0699
GGCCTCAC: -0.247
AGCTAGAT: 0.097
CCCTATAA: 0.183
AAGTTCCT: -0.0436
ATAAGTCA: 0.226
GAGTCTAC: -0.029
CGAGGATA: -0.0636
CCGCCGCA: -0.271
CGCATAAC: 0.22
ACCAGTAA: 0.174
CCAGGATA: -0.026
AAACCAGA: -0.0324
TCGTATAA: 0.291
AAGACGAG: -0.146
CGTTAGTC: 0.028
AAAAGCTG: 0.0447
AGCTCACG: -0.169
GGCGCTGA: -0.206
GAAAATTA: 0.336

Series 3 — technique: protein binding microarray; molecule type: double-stranded DNA, one strand shown; medium: in vitro; tested at: not given; baseline: not given; direction: higher = stronger binding; endpoint: E-score
Target: Histone acetyltransferase KAT6A, winged helix 1, GST fusion (KAT6A, Homo sapiens, UniProt Q92794, residues 1-85)
Notes: 8-mer, flanks averaged, mean of 2 arrays, mostly near background
Target sequence (chain): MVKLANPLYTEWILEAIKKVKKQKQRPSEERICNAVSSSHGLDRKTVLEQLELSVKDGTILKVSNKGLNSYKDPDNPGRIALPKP
GGCATGGA: -0.113
ACCCCTCA: -0.0915
CAGAGATG: -0.0663
CTCGAGGC: -0.0501
GGGTGAGA: -0.11
GGTAACAC: 0.0096
AAACTTAC: -0.181
GCGGAAGA: 0.191
AATCGGAA: -0.0575
AAACTCCT: -0.0839
AATTAGCG: 0.229
GATAGCCC: 0.00408
CTACTTTC: -0.0558
CTCTCCAA: -0.127
CCGAATGC: 0.249
CGGAAAAG: 0.189
CCTGGGGA: -0.26
ATGGTCAA: -0.221
ACTATTTC: 0.0259
CTTATACA: -0.00899
AACTCAAG: -0.184
ACCCCACA: -0.277
AGTCATAC: 0.00754
CTACGACA: -0.153
ACCCGAGC: 0.225

Series 4 — technique: RNA Bind-n-Seq; molecule type: RNA; medium: in vitro; tested at: 365 nM; baseline: no-protein control; direction: higher = stronger binding; endpoint: RBNS enrichment (R)
Target: RNA binding protein fox-1 homolog 2, RRM domain, GST-SBP tag (RBFOX2, Homo sapiens, UniProt O43251-10, residues 100-194)
Notes: natural RNA segment, single round, ends assumed
Constant ends, left off below: GGGAGUUCUACAGUCCGACGAUC … UGGAAUUCUCGGGUGCCAA
Residues (chain): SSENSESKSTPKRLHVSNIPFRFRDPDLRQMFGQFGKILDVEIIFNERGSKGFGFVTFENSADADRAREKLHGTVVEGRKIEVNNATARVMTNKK
GCUCUGACUCCUAUUUAUCAUAUACUCACUCUGACUCUGAGGAAGGCAGAGAGGUGCCACUUGGCCUACUUGCUUCCUGUCCCCAAGACAGUCCUUUUCUUCUGAAGUAA: 0.436
CGGGCAGCAUCGGGCUUCAUAGGUUCGUUGCUCUCCUGAGCUUUUUUGAUUCACUUGCUUUGUUUUCUGUUUUUUUUAAUAGCUAUUAUAAAGAGGUACAAUAAGCAGCU: 0.411
GUGGGCAGACCUCUUAACCUUAUAGAUGGUCAGUGCGACCUCUAGUGGUCUCAUGGCGUGUGGCACAACCCCCCUCCCCAGGGCUCAGCUUAAUGUGCCCUCUCCCCCCA: 0.606
UGCAGACACCAAGGGGGAGCAUCCAGUCUUUAAGAGCCAAGUGGGGGCCCCUUUUCCGAAGCCACUUCCAGGCCAAGGCAGUCGCCAGGGCUUCUUGUCCCCACCUUCUG: 0.289
UUGACAUUUGUUUGGUUAUAGUGCAAUAUAUUUUGUAUGCAAGCAGUUUCAAUAAAGUUUGAUCUUCCUCUGCUAAAUUGAUGUUGAUGCAAUCCUUACAAAUGAUUGCU: 0.321
AGUAGAAAUCUCAAGGCUUUACCCAGAAGAGCCCAGUCAGGGAGAGGUGUAAAUGCAAAAUUGCCAAAUAGCACAAACAAUGAAUGUUUUCUGGUUGUUAUAUAGAUGCC: 0.866
GUCUCCAAGUCCAAAUCUGAAGGCAGCCUCACCUGCUCUCUGCCCCGGGACGCCUAGGAGCCUGGGGGACACUGGAAGAGGGGCCUGUCCAUCCUCACCAUCGCCUUCCC: 0.593
GUGCAGAAAAUAUUUAAUAUCAAAAGAAAAUUGAUAUUUUUAUACAAGUAAUUUCCUGAGCUAAAUGCUUCAUUGAAAGCUUCAAAGUUUAUAUGCCUGGUGCACAGUGC: 0.638
UCUCUAAAGAACCUUAACUAAUGCAUCAUAAGAAUUCUCCUUUCUUUGUCUUAUGGUAUUUUUUAGGUCAUUUCUCUUCUAUAUCAGGCUCUUGUUAAUUAGUCUUUUUU: 1.13
CCCCACCCCGCAAUUCCGCCAAAGCCAAGAAAUAGCCCCCGCACACCACCCUGUGCCCCAGAUGAUGGAUUGAUUGUACAGAAAUCAUGCUGCCAUGCUGGGGGGGGGUC: 0.755
GGUGUUAACUCUUUCUGCUCCUUGCAUUUUGACAUCCCUGAAGGGGAGCUCUUGGAUAUCAUUGGCCAUGUUUCAAUCGAAUGGAGCCACUGGGCCCCAACACUGGCUUU: 3.05
UAUUUGGGGGGGAAUAAGAUUAUAUGGACUUUCUUGCAAGCAACAAGCUAUUUUUUAAAAAAAACUAUUUAACAUUCUUUUGUUUAUAUUGUUUUGUCUCCUAAAUUGUU: 2.63
